{"data": "Measurements gathered from unrelated publications", "BCHE": "Cholinesterase (BCHE, Equus caballus, UniProt P81908)", "AKR1C3": "Aldo-keto reductase family 1 member C3 (AKR1C3, Homo sapiens, UniProt P42330)", "note": "Numbers after ± are the reported error.", "sequence of UniProt P81908 (whole entry, looked up)": "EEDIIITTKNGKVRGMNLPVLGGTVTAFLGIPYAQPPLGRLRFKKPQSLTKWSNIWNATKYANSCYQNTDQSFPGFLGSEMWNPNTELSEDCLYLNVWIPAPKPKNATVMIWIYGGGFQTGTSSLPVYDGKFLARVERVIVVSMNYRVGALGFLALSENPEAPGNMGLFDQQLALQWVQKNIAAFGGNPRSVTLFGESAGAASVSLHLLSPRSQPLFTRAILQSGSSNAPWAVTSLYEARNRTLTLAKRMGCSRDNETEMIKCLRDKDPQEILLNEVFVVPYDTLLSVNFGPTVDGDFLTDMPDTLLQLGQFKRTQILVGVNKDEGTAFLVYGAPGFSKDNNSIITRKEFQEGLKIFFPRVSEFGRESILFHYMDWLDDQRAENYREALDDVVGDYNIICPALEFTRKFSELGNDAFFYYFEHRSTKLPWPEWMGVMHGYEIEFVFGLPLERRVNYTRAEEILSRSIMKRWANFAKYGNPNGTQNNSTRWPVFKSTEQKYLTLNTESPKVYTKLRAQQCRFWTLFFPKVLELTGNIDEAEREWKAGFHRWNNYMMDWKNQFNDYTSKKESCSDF", "sequence of UniProt P42330 (whole entry, looked up)": "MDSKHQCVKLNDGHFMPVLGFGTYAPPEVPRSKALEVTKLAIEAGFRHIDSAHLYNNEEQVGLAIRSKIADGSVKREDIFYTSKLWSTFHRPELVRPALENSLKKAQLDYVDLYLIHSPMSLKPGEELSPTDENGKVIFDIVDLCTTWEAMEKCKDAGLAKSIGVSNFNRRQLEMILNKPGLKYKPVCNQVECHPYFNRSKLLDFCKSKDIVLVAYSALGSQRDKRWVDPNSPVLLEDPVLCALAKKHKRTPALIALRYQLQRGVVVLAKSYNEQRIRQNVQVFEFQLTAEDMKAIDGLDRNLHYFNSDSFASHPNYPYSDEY", "sequence of UniProt Q00535 (whole entry, looked up)": "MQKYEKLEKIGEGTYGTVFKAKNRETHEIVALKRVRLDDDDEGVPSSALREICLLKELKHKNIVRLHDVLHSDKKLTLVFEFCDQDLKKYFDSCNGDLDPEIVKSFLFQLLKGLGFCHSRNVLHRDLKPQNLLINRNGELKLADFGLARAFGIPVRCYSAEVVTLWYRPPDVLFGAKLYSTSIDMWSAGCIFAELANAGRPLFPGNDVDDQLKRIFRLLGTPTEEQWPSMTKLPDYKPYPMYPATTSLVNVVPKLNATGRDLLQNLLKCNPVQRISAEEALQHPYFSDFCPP", "sequence of UniProt P07711 (whole entry, looked up)": "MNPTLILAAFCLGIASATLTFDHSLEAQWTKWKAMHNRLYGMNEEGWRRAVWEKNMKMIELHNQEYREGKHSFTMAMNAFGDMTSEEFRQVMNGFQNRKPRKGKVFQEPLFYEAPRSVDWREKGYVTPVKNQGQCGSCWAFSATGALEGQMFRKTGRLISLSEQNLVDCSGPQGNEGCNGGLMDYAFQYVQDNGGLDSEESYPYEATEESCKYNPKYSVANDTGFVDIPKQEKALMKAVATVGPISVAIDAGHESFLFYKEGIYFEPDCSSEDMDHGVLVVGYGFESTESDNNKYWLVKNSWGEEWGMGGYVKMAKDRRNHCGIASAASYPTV", "sequence of UniProt Q96RI1 (whole entry, looked up)": "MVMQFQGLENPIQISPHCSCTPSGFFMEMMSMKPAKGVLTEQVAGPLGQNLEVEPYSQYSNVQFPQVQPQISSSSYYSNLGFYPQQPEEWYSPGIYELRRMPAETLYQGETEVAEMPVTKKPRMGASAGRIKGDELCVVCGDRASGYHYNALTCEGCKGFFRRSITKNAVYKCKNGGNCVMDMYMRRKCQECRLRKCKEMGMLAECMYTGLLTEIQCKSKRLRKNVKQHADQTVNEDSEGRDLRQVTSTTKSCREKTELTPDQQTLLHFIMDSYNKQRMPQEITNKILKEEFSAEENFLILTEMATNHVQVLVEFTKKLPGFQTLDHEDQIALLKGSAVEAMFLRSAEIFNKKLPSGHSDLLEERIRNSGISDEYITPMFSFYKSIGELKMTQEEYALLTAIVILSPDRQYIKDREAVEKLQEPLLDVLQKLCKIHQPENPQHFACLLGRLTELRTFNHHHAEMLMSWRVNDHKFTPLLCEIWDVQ", "sequence of UniProt P28482 (whole entry, looked up)": "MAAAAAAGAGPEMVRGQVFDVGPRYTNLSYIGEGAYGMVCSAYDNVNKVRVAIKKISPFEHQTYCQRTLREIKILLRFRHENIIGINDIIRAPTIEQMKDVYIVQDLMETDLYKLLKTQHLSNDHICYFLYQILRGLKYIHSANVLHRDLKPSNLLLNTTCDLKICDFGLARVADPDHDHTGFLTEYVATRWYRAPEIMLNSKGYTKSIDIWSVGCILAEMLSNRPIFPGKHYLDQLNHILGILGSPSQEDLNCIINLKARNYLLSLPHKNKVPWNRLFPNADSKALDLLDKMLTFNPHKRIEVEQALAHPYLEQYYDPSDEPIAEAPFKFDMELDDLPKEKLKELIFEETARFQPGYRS", "sequence of UniProt Q06124 (whole entry, looked up)": "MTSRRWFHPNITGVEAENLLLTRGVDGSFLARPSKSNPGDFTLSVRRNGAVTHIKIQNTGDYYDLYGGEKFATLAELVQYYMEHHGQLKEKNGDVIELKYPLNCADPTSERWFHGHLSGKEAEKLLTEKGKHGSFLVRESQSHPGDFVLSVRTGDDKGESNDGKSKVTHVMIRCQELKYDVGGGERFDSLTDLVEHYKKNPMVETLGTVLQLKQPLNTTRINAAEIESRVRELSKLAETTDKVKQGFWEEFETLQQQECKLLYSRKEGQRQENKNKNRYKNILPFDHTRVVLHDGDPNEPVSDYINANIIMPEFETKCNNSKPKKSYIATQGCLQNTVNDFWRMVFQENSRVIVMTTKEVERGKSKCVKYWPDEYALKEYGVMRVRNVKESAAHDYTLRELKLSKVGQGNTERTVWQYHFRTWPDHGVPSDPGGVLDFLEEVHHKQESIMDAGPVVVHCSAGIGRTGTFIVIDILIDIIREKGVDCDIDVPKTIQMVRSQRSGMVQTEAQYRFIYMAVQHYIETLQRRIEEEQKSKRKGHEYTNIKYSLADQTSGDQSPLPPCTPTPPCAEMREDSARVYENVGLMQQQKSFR", "sequence of UniProt Q70CQ3 (whole entry, looked up)": "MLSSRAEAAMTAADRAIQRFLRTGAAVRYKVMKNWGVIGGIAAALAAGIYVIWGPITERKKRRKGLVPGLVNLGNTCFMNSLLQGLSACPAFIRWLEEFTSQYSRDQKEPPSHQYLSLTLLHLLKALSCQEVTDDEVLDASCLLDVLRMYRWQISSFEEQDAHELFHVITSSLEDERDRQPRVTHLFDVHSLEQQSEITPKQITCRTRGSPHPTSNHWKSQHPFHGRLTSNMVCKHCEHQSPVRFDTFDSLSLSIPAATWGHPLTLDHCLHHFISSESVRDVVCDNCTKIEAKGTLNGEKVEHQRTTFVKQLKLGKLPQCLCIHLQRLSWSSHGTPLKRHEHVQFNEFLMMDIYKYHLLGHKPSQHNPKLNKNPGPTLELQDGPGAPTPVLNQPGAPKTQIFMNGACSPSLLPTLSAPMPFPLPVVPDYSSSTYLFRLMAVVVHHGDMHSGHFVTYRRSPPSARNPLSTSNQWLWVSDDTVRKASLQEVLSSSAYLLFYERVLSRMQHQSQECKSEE", "sequence of UniProt P04839 (whole entry, looked up)": "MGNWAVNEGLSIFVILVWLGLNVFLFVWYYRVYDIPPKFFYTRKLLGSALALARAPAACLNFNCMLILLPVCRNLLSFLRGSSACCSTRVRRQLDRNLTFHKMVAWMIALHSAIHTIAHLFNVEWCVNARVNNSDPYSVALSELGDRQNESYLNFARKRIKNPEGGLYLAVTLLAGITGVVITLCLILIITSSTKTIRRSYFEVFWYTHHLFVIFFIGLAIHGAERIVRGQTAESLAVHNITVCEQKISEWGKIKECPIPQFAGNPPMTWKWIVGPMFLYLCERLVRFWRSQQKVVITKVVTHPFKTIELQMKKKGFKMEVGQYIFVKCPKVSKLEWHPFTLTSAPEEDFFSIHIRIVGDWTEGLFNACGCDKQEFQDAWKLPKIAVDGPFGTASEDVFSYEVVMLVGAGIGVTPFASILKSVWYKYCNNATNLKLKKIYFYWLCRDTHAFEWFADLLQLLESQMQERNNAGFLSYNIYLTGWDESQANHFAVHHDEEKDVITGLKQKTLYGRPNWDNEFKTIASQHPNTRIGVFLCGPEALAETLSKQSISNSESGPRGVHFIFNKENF"}
{"SMILES": "O=C(OCC(=O)c1ccc([N+](=O)[O-])cc1)/C(=C/c1ccc(Cl)cc1)NC(=O)c1ccccc1", "target": "Procathepsin L (CTSL, Homo sapiens, UniProt P07711)", "test": "enzyme activity, inhibitor", "conditions": "50 µM", "inhibition": "20.3%"}
{"SMILES": "COC(=O)C1=CO[C@@H](OC(C)=O)[C@@H]2C(Cn3cc(CCCCN4C(=O)c5ccccc5C4=O)nn3)=CC[C@H]12", "target": "BCHE", "test": "inhibitor", "system": "horse serum BuChE", "conditions": "10000 µM", "inhibition": "47.55 ± 0.13%"}
{"SMILES": "Cc1ccc(N2CC3CCC(C2)N3C)cc1C(=O)N[C@H](C)c1cc(-c2cnn(C)c2)nc2ccccc12", "target": "USP30 (Homo sapiens, UniProt Q70CQ3)", "test": "enzyme activity", "conditions": "concentration not given", "inhibition": "no inhibition"}
{"SMILES": "COc1ccnc(Nc2c3c(nc4ccccc24)CCCC3)c1", "target": "BCHE", "test": "enzyme activity, inhibitor", "conditions": "50 µM", "inhibition": "78%"}
{"SMILES": "CC(=O)NC(Cc1ccc(Br)c(Cl)c1)C(=O)N[C@@H](C)C(=O)N1CCC[C@H]1C(=O)N1CCC[C@H]1C(=O)N[C@@H](CCC(=O)O)C(=O)N[C@@H](Cc1c[nH]cn1)C(=O)N[C@@H](CO)C(=O)N[C@H](C(=O)N[C@@H](C)C(N)=O)[C@@H](C)OP(=O)(O)O (stereo partly shown)", "target": "MAPK1 (Homo sapiens, UniProt P28482)", "test": "enzyme activity, inhibitor", "conditions": "10 µM", "inhibition": "0.69%"}
{"SMILES": "COc1ccnc(Nc2c3c(nc4cc(C)ccc24)CCCC3)c1", "target": "BCHE", "test": "enzyme activity, inhibitor", "conditions": "100 µM", "inhibition": "-91.9%"}
{"SMILES": "CCCc1cnn2c(NCc3ccc(C)s3)nc(N[C@H](CC)CO)nc12", "target": "CDK5 (Homo sapiens, UniProt Q00535)", "test": "enzyme activity", "conditions": "2 µM", "inhibition": "10 to 20%"}
{"SMILES": "NC1CCCCC1N.O=C1[O][Pt]([O]C(=O)c2ccc(P(c3ccccc3)c3ccccc3)cc2)([O]C(=O)c2ccc(P(c3ccccc3)c3ccccc3)cc2)[O]C1=O.[Cl][Au].[Cl][Au]", "target": "thioredoxin reductase", "conditions": "1 µM", "inhibition": "47.3%"}
{"SMILES": "C[C@@]12CC[C@@H]3c4ccc(O)c(Cl)c4CC[C@H]3[C@@H]1CCC2=O", "target": "AKR1C3", "test": "enzyme activity, inhibitor, absorbance", "conditions": "10 µM, pH 9", "inhibition": "5.3%"}
{"SMILES": "CC[C@H](C)[C@H](NC(=O)[C@H](CCCNC(=N)N)NC(=O)[C@@H](NC(=O)[C@H](CO)NC(=O)[C@H](CS)NC(=O)[C@H](CCCNC(=N)N)NC(=O)[C@H](CCCNC(=N)N)NC(=O)[C@H](CCCNC(=N)N)NC(=O)[C@H](CCC(N)=O)NC(=O)[C@H](CCCNC(=N)N)NC(=O)[C@H](CCCNC(=N)N)NC(=O)[C@H](CCCCN)NC(=O)[C@H](CCCCN)NC(=O)[C@@H](N)CCCNC(=N)N)[C@@H](C)O)C(=O)N[C@@H](CCCNC(=N)N)C(=O)N[C@@H](CCCNC(=N)N)C(=O)N[C@@H](CCC(N)=O)C(=O)N[C@@H](CC(C)C)C(N)=O", "target": "NADPH oxidase 2 (CYBB, Homo sapiens, UniProt P04839)", "test": "enzyme activity", "system": "membrane preparation", "conditions": "100 µM", "inhibition": "inhibited"}
{"SMILES": "O=C(O)c1ccccc1-c1c2ccc(=O)c([As]3SCCS3)c-2oc2c([As]3SCCS3)c(O)ccc12", "target": "PTPN11 (Homo sapiens, UniProt Q06124)", "test": "phosphatase activity", "conditions": "concentration not given, 150 min, full-length, with: DiFMUP", "inhibition": "inhibited"}
{"SMILES": "CSCCNC(=O)CCC(C)C1CCC2C3C(O)CC4CC(O)CCC4(C)C3CCC12C (stereo not shown)", "target": "Bile acid receptor (NR1H4, Homo sapiens, UniProt Q96RI1)", "test": "receptor activation, antagonist", "conditions": "concentration not given, with: obeticholic acid 25 µM", "inhibition": "inhibited"}
{"SMILES": "C[C@@]12CC[C@@H]3c4cc(Cl)c(O)c(Cl)c4CC[C@H]3[C@@H]1CCC2=O", "target": "AKR1C3", "test": "enzyme activity, inhibitor, absorbance", "conditions": "100 µM, pH 9", "inhibition": "89.8%"}
